Measured values gathered from unrelated publications.
Each line is one published result; not all experiments were run side by side. “And” joins repeats or separate records; there may be more than shown. ± marks the error that the study gave. ≈ marks a conversion by molar mass, not a printed value.
Sequence of UniProt Q9NZJ5 (whole entry, looked up): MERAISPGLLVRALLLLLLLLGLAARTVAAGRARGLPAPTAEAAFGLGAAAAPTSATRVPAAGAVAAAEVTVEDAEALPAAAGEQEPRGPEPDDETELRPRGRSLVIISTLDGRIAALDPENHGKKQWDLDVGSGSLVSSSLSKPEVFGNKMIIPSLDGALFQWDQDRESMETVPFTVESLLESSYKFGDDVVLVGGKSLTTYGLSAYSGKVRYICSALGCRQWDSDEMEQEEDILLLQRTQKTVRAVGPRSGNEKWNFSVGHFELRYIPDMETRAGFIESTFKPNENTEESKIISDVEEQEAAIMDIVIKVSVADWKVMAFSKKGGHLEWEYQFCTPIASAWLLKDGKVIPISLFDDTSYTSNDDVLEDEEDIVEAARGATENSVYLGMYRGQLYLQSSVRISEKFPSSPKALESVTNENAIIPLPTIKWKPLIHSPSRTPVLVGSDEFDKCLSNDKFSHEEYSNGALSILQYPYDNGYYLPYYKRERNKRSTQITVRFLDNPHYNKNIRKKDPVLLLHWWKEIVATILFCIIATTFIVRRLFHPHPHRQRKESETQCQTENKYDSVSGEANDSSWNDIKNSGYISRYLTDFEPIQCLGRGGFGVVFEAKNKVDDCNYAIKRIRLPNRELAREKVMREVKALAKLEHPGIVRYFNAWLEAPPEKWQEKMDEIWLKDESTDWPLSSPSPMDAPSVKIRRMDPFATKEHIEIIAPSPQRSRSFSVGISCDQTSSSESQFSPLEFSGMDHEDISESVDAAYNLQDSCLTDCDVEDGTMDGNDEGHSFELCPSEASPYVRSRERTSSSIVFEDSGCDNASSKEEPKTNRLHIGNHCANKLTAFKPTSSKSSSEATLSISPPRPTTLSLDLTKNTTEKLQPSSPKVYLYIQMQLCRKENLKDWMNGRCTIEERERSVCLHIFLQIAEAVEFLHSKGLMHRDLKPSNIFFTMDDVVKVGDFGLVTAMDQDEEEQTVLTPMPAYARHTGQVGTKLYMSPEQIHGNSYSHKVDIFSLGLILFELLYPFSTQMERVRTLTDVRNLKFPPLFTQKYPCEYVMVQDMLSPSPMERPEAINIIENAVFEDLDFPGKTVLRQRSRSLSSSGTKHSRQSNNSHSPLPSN
Sequence of UniProt Q9H7Z7 (whole entry, looked up): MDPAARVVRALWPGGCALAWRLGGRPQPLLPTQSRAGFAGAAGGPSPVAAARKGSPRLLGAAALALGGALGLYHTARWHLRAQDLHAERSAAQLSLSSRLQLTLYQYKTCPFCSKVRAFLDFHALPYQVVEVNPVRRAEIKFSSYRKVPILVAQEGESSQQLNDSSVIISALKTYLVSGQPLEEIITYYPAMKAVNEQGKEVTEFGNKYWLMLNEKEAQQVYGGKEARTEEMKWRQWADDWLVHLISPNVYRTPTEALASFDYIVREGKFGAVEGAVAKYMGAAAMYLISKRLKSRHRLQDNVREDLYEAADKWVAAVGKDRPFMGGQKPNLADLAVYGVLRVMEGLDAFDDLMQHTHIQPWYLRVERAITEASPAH

SMILES	tested on	assay	test system	conditions	scale	measurement	value
C[C@H]1CN(c2n[nH]c3nc(N[C@H]4CC[C@H](NS(=O)(=O)CCC(F)(F)F)CC4)ncc23)CCO1	Prostaglandin E synthase 2 (Homo sapiens, UniProt Q9H7Z7)	Kinobeads competition, measured: PTGES2	–	0.8 µM, unit not given	baseline: vehicle	remaining binding	1.22
Cc1cn(-c2cc(NC(=O)c3ccc(C)c(Nc4nccc(-c5cccnc5)n4)c3)cc(C(F)(F)F)c2)cn1	–	–	human patients	dose not given, 12 months vs baseline, within treated group	baseline: baseline, direction not given	ADAS-Cog score change	6.83
N=C(N)NCCC[C@H](NC(=O)CCCCCNC(=O)[C@H](CCCNC(=N)N)NC(=O)[C@H](CCCNC(=N)N)NC(=O)CCCCCNC(=O)[C@H](CCCNC(=N)N)NC(=O)[C@H](CCCNC(=N)N)NC(=O)CCCCCNC(=O)[C@H](CCCNC(=N)N)NC(=O)[C@H](CCCNC(=N)N)NC(=O)CCCCCNC(=O)[C@@H](N)CCCNC(=N)N)C(=O)NCCCCCC(=O)NCCC(=O)O	–	broth microdilution	ATCC 33592 resistant strain, Mueller-Hinton broth	–	–	MIC	192 µM (≈ 366 µg/mL)
C[C@]1(CO)Cc2ncn(-c3ccc(C#N)c(Cl)c3)c2C(=O)O1	–	–	human	20 mg single dose	–	urinary sodium excretion Ae(0-24h)	289 mmol
CCCCC/C=C\C/C=C\C/C=C\Cc1ccccc1CCCC(=O)N[C@H](C)CO	–	mechanical hypersensitivity, electronic von Frey	mouse, CFA inflammatory pain model, contralateral non-inflamed paw	ip, 1 mg/kg	baseline: vehicle	paw withdrawal threshold	no effect
CN(C)C(=O)c1cc2cnc(Nc3ccc(N4CCNCC4)cn3)nc2n1C1CCCC1	–	–	HR+/HER2− advanced breast cancer patients	dose not given, prior metastatic chemotherapy	–	median PFS2	46.5 months
CN1CCN(S(=O)(=O)c2cc([N+](=O)[O-])ccc2N(CCOS(C)(=O)=O)CCOS(C)(=O)=O)CC1	–	–	NSG mice, sample CH PDX	intraperitoneal, 25 mg/kg weekly x3	baseline: vehicle	EFS delay (T-C)	> 360 days
CCCCC1(CCCC)CN(c2ccccc2)c2cc(SC)c(OCC(=O)N[C@@H](C(=O)NCC(=O)O)c3ccccc3)cc2S(=O)(=O)C1	–	measured: HDL cholesterol	human, serum	10 mg once daily, day 11	–	serum HDL-C	47.1 mg/dL
NCC(=O)NCCC(c1ccccc1)c1ccccc1	Plasmodium falciparum	–	W2	–	–	IC50	2.51 µM
Cc1nc(Nc2ccc(CC(=O)O)cc2)nc(Nc2ccc(F)c(C(F)(F)F)c2)c1C	–	–	C57BL/6J mice, high-fat diet, liver	intraperitoneal, 0.3 mg/kg daily, 60% fat diet 12 weeks, dosed last four	baseline: vehicle	triglyceride content	decreased
COc1ccc(N2C(=O)N(c3c(C)cccc3Cl)Cc3cnc(Nc4ccc(C5CCN(C)CC5)cc4OC)nc32)nc1	Eukaryotic translation initiation factor 2-alpha kinase 3 (EIF2AK3, Homo sapiens, UniProt Q9NZJ5)	kinase activity, inhibitor	–	0.5 µM, kinase PERK	–	inhibition	15%
O=S(=O)(NCCNC/C=C/c1ccc(Br)cc1)c1cccc2cnccc12	–	–	mouse zygotes	20 µM, 72 h post-hCG	–	embryos reaching 4-cell	26.3%
CC[C@H](C)[C@@H]1NC(=O)[C@@H]2CCCN2C(=O)[C@H](CC(C)C)NC(=O)[C@H](CC(C)C)NC(=O)CNC(=O)[C@@H](NC(=O)[C@@H](NC(=O)[C@H](CC(=O)O)NC(=O)CNC(=O)[C@@H](NC(=O)[C@H](C)NC(=O)CNC(=O)[C@H](CCCCN)NC(=O)[C@H](CC(C)C)NC(=O)[C@H](CC(C)C)NC(=O)[C@H](CCCCN)NC(=O)CNC(=O)[C@@H](NC(=O)[C@@H](N)CC(C)C)C(C)C)C(C)C)C(C)C)CSSC[C@@H](C(=O)O)NC1=O	–	RNA-seq, measured: H3f3a-ps1 mRNA	mouse traumatic brain injury, frontal cortex and hippocampus	dose not given	baseline: TBI plus compound vs TBI	log2 fold change	-1
COc1c(CCC[P+](c2ccccc2)(c2ccccc2)c2ccccc2)cc2c(c1OC)OCO2.[I-]	NCI60 panel	SRB	–	–	–	mean Log10GI50	-5.8 log M
COc1cc(Nc2ncc(F)c(Nc3ccc4c(n3)NC(=O)C(C)(C)O4)n2)cc(OC)c1OC	NMDA receptor polyamine site	–	–	–	–	IC50	> 10 µM
CO[C@H]1C[C@@H]2CC[C@@H](C)[C@@](O)(O2)C(=O)C(=O)N2CCCC[C@H]2C(=O)O[C@H]([C@H](C)C[C@@H]2CC[C@@H](OC(=O)NCCOCCOCCOCCOCCOCCOCCOCCOCCC(=O)N3CCc4cc(Cn5nc(-c6ccc7oc(N)nc7c6)c6c(N)ncnc65)ccc4C3)[C@H](OC)C2)C[C@@H](O)[C@H](C)/C=C(\C)[C@@H](O)[C@@H](OC)C(=O)[C@H](C)C[C@H](C)/C=C/C=C/C=C/1C	–	–	patients with advanced solid tumours	intravenous, 12 mg weekly, grade 3 or higher	–	mucositis incidence	25%
C[C@H]1O[C@@H](O[C@H]2CC[C@@]3(C)[C@@H](CC[C@]4(C)[C@@H]3C=C[C@]35OC[C@@]6(CCC(C)(C)C[C@H]63)[C@@H](O)C[C@]54C)[C@]2(C)CO)[C@H](O)[C@@H](O[C@@H]2O[C@H](CO)[C@@H](O)[C@H](O)[C@H]2O)[C@H]1O	–	measured: FAS	ethanol-fed mice, hepatic SIRT1 knockdown (AAV8-TBG-SIRT1), liver	dose not given, high dose, unit not given	baseline: AAV8-TBG-Null ethanol group	mRNA level	1.25 and 0.98 and 0.86 and 0.88 and 1 and 0.83
CC[C@H](C)[C@H](NC(=O)[C@H](Cc1ccccc1)NC(=O)[C@H](CCC(=O)O)NC(=O)[C@H](CCCNC(=N)N)NC(=O)[C@H](C)NC(=O)[C@H](C)NC(=O)[C@H](CCC(N)=O)NC(=O)[C@H](CCC(=O)O)NC(=O)[C@H](CCC(=O)O)NC(=O)[C@H](CC(C)C)NC(=O)[C@H](Cc1ccc(O)cc1)NC(=O)[C@H](CO)NC(=O)[C@H](CO)NC(=O)[C@@H](NC(=O)[C@H](CC(=O)O)NC(=O)[C@H](CO)NC(=O)[C@@H](NC(=O)[C@H](Cc1ccccc1)NC(=O)[C@@H](NC(=O)CNC(=O)[C@H](CCC(=O)O)NC(=O)[C@H](C)NC(=O)CCc1c[nH]cn1)[C@@H](C)O)[C@@H](C)O)C(C)C)C(=O)N[C@@H](C)C(=O)N[C@@H](Cc1c[nH]c2ccccc12)C(=O)N[C@@H](CC(C)C)C(=O)N[C@H](C(=O)N[C@@H](CCCNC(=N)N)C(=O)NCC(=O)N[C@@H](CCCNC(=N)N)C(=O)N[C@@H](CCCCNC(=O)COCCOCCNC(=O)COCCOCCNC(=O)CC[C@H](NC(=O)CCCCCCCCCCCCCCCCC(=O)O)C(=O)O)C(=O)NCC(=O)NCC(=O)N[C@@H](CO)C(=O)N[C@@H](CCCCNc1c(NCCCCCN(O)C(=O)CCC(=O)NCCCCCN(O)C(=O)CCC(=O)NCCCCCN(O)C(C)=O)c(=O)c1=O)C(=O)O)C(C)C [zirconium-89 labelled]	–	ex vivo gamma counting	rat, knee	subcutaneous, 3 nmol/kg, 24 h, with: [89Zr]-labelled peptide	–	tissue uptake	0.21 %ID/g
COc1cc(Br)cc(Br)c1Oc1cc(Br)cc(Br)c1O	–	glucuronidation	human liver microsomes	–	–	Vmax/Km	211 ± 99.4 µL/min/mg
Clc1cc2c(cc1Cl)Oc1cc(Cl)c(Cl)cc1O2	–	–	female Sprague-Dawley rat, liver	dose not given	baseline: vehicle	LTC4 level	1.3 fold
CN(CC(=O)O)C(=N)NP(=O)(O)O	–	binding, MIDAS equilibrium dialysis LC-MS	A2AR-BRIL thermostabilized	concentration not given	baseline: no-protein control	log2 fold change	-0.113
